Assay results gathered from unrelated publications.
“And” joins repeats or separate records; there may be more than shown. ± marks the error that the study gave.

| SMILES | assay | test system | setting | how to read | endpoint | result |
| --- | --- | --- | --- | --- | --- | --- |
| CC1(CO)CCCC2(C)C1CCC1(C)c3cocc3CCC12 (stereo not shown) | – | NOD-SCID mouse, intact mature male | oral, 10 mg/kg, 13 daily doses, androgen-dependent tissue | – | testes weight | no effect |
| Cc1ccc(-c2ccc(-c3cc4sccc4o3)cn2)nc1 | TCSPC | water, HEPES 100 mM | pH 7.4 | – | fluorescence lifetime | 2.31 ns |
| NC(=O)[C@H](Cc1ccccc1)N[11C](=O)OCc1ccccc1 | – | male Wistar rats, plasma | intravenous, 45 min | – | intact tracer | 10.9% and 11% |
| COC(=O)C(c1ccccc1Cl)N1CCC(SCC(=O)c2cccc(OC)c2)C(=CC(=O)O)C1 (mixture of isomers) | HPLC-MS/MS | feline citrate plasma | 100 ng/mL, 72 h, -80 °C, storage stability | – | deviation from nominal | -8% |
| O=C([O-])CN1CCN(CC(=O)[O-])CCN(CC(=O)c2ccc(-c3ccc(OCC(=O)O)cc3)cc2)CCN(CC(=O)[O-])CC1.[Eu+3] | – | 1 M HCl | 298 K | – | dissociation half-life | 5.33 ± 0.333 h |
| CC(=O)N([O-])CCCCCNC(=O)CCC(=O)N([O-])CCCCCNC(=O)CCC(=O)N([O-])CCCCCN.[89Zr+4] | radio-iTLC | aqueous buffer | 1 h, pH 8.0, 37 °C, EDTA challenge, added: 100-fold excess EDTA | – | intact complex | 96.8 ± 1.3% |
| Cc1cccc(-c2cccc(C)n2)n1.Cc1cccc(-c2cccc(C)n2)n1.[Cl-].[Cl-].[Ru+2].c1ccc(-c2ccnc3c2ccc2c(-c4ccccc4)ccnc23)cc1 | – | phosphate buffer with NaCl | concentration not given, pH 7.4, 37 °C, dark, dialysis | – | total release from nanoassemblies | 77% |
| [11CH3]N1CCN(CCCOc2ccc(=O)n(-c3ccc(Cl)c(Cl)c3)n2)CC1 | PET-CT | BALB/c mouse male, lung | intravenous, dose not given, 5 min | – | uptake | 6.75 ± 0.86 %ID/cc |
| C[Si]1(C[C@H](CN)CC(=O)O)CCCC1 | – | Sprague-Dawley rat, male, brain | oral, 100 mg/kg, estimated as Cmax x Kp | – | brain Cmax | 13.6 µM |
| O=C(CCCCC[N+]#[C][99Tc-5]([C]#[N+]CCCCCC(=O)N[C@H]1C(O)O[C@H](CO)[C@@H](O)[C@@H]1O)([C]#[N+]CCCCCC(=O)N[C@H]1C(O)O[C@H](CO)[C@@H](O)[C@@H]1O)([C]#[N+]CCCCCC(=O)N[C@H]1C(O)O[C@H](CO)[C@@H](O)[C@@H]1O)([C]#[N+]CCCCCC(=O)N[C@H]1C(O)O[C@H](CO)[C@@H](O)[C@@H]1O)[C]#[N+]CCCCCC(=O)N[C@H]1C(O)O[C@H](CO)[C@@H](O)[C@@H]1O)N[C@H]1C(O)O[C@H](CO)[C@@H](O)[C@@H]1O (stereo partly shown) | two-compartment model | CD-1 mouse, blood | dose not given | – | peripheral volume of distribution | 0.003 L/kg |
| CCCC[C@H](NC(=O)CNC(=O)CNC(=O)CN1CCN(CC(=O)O)CCN(CC(=O)O)CCN(CC(=O)O)CC1)C(=O)N[C@H]1CC(=O)NCCCC[C@@H](C(N)=O)NC(=O)[C@H](Cc2c[nH]c3ccccc23)NC(=O)[C@H](CCCNC(=N)N)NC(=O)[C@@H](Cc2ccccc2)NC(=O)[C@H](Cc2c[nH]cn2)NC1=O [indium-111 labelled] | RP-HPLC | mouse serum | 24 h, 37 °C | – | serum stability | stable |
| CNc1cc(OC)c(Nc2nccc(-c3cn(C4CC4)c4ccccc34)n2)cc1NC(=O)CCSCC(N)C(=O)O (stereo not shown) | radio-HPLC, co-eluting peaks pooled | human, urine | 0 to 96 h, sample holds 4.16% dose | relative to: dose | excreted amount | 0.07% |
| Cn1c(=O)oc2ccc(-c3ccc(CC(C#N)NC(=O)C4CNCCCO4)c(F)c3)cc21 (stereo not shown) | – | human, fed, plasma | 40 mg single dose, geometric mean | – | AUC(0-inf) | 3700 ng·h/mL |
| COCCOCCOCCOCCOCCOCCOCCOCCC(=O)NCCCc1cc2cc3nc(cc4[nH]c(cc5nc(c(OC)c1[nH]2)C(=O)C5(C)C)cc4CCc1ccc(C(=O)O)cc1)CC3(C)C | – | water with 5% DMF | room temperature | – | singlet excited-state lifetime | 2.76 ns |
| CN1CCC[C@]1(C)/C=C/S(=O)(=O)NC(=O)Nc1c2c(cc3c1CCC3)CCC2 | – | human, plasma | oral, 50 mg twice daily, day 14, multiple ascending dose | – | Tmax after second dose, median | 2.1 h |
| O=C(O)[C@@H]1C[C@@H](O)CN1C(=O)[C@@H]1CCCN1 | potentiometric titration | – | 25 °C, MAH-3 complex, added: Fe(III) | – | log beta | -10.9 |
| COc1cc([O-])c(C=NCCCN(C)CCN(C)CCCN=Cc2c([O-])cc(OC)cc2OC)c(OC)c1.[67Ga+3] | – | rat | intravenous, 1 min | relative to: heart over lung | tissue uptake ratio | 0.58 ± 0.04 |

| SMILES | assay | test system | setting | how to read | endpoint | result |
| --- | --- | --- | --- | --- | --- | --- |
| CCCC[C@@H]1NC(=O)[C@@H](NC(=O)[C@H](CCC(=O)O)NC(=O)CNC(=O)CN2CCN(CC(=O)O)CCN(CC(=O)O)CCN(CC(=O)O)CC2)CCCCNC(=O)C[C@@H](C(N)=O)NC(=O)[C@H](C(C)C)NC(=O)[C@@H]2CCCN2C(=O)[C@H](CCCNC(=N)N)NC(=O)CNC(=O)[C@H](Cc2c[nH]c3ccccc23)NC(=O)[C@H](CCCNC(=N)N)NC(=O)[C@@H](Cc2ccccc2)NC(=O)[C@H](Cc2c[nH]cn2)NC(=O)[C@H](CCC(=O)O)NC1=O [gallium-67 labelled] | – | C57 mice, B16/F1 flank melanoma, tumour | intravenous, 0.037 MBq, 24 h | – | tumour uptake | 5.02 ± 1.35 %ID/g |
| O=C(NCCCN(CCCCN(CCCNC(=O)c1cccc(=O)n1[O-])C(=O)c1cccc(=O)n1[O-])C(=O)c1cccc(=O)n1[O-])c1cccc(=O)n1[O-].[89Zr+4] | – | mouse, intestine | 4 h | – | tracer uptake | 7.17 %ID/g |
| COC(=O)c1ccc(-c2cn(Cc3cc(Cl)ccc3O[11CH3])nn2)cc1 | PET one-tissue compartment model | rhesus monkey, basal ganglia | dose not given | – | distribution volume (VT) | 0.585 mL/cm³ |
| CN1CCC(N[C@@H]2CCc3[nH]c4c(C(N)=O)ccc(-c5ccccc5Cl)c4c3C2)CC1 | – | BALB/c mice, plasma | intravenous, 2 mg/kg | – | AUC(0-inf) | 285 ± 55.8 ng·h/mL |
| N=C(N)NCCC[C@@H]1NC(=O)[C@H](Cc2c[nH]c3ccccc23)NC(=O)[C@@H](CC2CCCCC2)NC(=O)[C@@H]2CCCN2C(=O)[C@@H](NC(=O)CCc2ccccc2)CCCNC1=O | – | C57BL/6J mice, spinal cord | subcutaneous, 1 mg/kg | – | absorption half-life | 0.515 h |
| Cc1ccc(OCC(=O)N(Cc2cccs2)c2ccn[nH]2)cc1 | – | female Sprague-Dawley rat, plasma | oral, 10 mg/kg, single dose | – | half-life | 1.46 h |
| OC1(C(F)(F)F)CCN(c2nc(Nc3ccnc(C(F)(F)F)c3)nc(-c3cccc(C(F)(F)F)n3)n2)C1 (stereo not shown) | – | Sprague-Dawley rat | oral, up to 50 mg/kg, single dose | – | respiratory effect | no effect |
| CCC(C)N(C)C(=O)c1nc(-c2cccc(C(F)(F)[18F])c2)c2ccccc2n1 (stereo not shown) | – | mouse, lung | intravenous, 3.7 MBq, 4 h | – | tracer uptake | 3.12 %ID/g |
| CC(C)[C@H](NC(=O)CNC(=O)[C@H](CCC(N)=O)NC(=O)[C@H](C)N)C(=O)O | LC-MS/MS | human, plasma | intravenous, 30 mg/kg, single dose, geometric mean | – | clearance | 1020 mL/min/kg |
| COc1cc2c(cc1OC)CN(CCCCn1ccc3cc(OCC[18F])ccc31)C2 | – | male CD-1 mouse, spleen | intravenous, 2 h | – | tracer uptake | 4.31 %ID/g |
| NC[C@@H](C(=O)Nc1ccc(-c2cn[nH]c2)cc1)c1ccccc1 | OECD 405 eye irritation | New Zealand White rabbit, eye | topical, 0.1%, 73 h (day 4) | direction not given | total eye irritation score | 1 |
| CCCC[C@H](NC(C)=O)C(=O)N[C@H]1CC(=O)NCCCC[C@@H](C(=O)N[C@@H](C(=O)N2CCC[C@@H]2C(N)=O)C(C)C)NC(=O)[C@H](Cc2c[nH]c3ccccc23)NC(=O)[C@H](CCCN=C(N)N)NC(=O)[C@@H](Cc2ccc3ccccc3c2)NC(=O)[C@@H]2CCCN2C1=O | – | healthy dogs, plasma | subcutaneous, 2.25 mg/kg per day, day 28, 12 h post-dose, median | – | plasma histamine | 17.1 ng/mL |
| O=C([O-])CN1CCN(CC(=O)[O-])CCN(CC(=O)NCC2CCC(C(=O)NC(Cc3ccc4ccccc4c3)C(=O)NCCCCC(NC(=O)NC(CCC(=O)O)C(=O)O)C(=O)O)CC2)CCN(CC(=O)[O-])CC1.[44Sc+3] (stereo not shown) | transmetallation stability | – | 24 h, 37 °C, added: Fe3+ 10 mM | – | intact complex | 95 ± 1.4% |
| CC(C)C[C@@H](NC(=O)[C@H](NC(=O)[C@H]1CCCN1)[C@H](C)O)C(=O)N[C@H](Cc1c[nH]cn1)C(=O)N[C@@H](C(=O)N[C@H](Cc1c[nH]cn1)C(=O)N[C@H](CC(N)=O)C(=O)N[C@H](CCCNC(=N)N)C(=O)N[C@H](CCCNC(=N)N)C(=O)N[C@H](CCCNC(=N)N)C(=O)N[C@H](CCCNC(=N)N)C(=O)N[C@H](CCCNC(=N)N)C(N)=O)[C@H](C)O | – | beagle dog, plasma | intravenous, 3 mg/kg, single dose | – | MRT | 9.4 h |
| CCCC[C@H](NC(=O)CNC(=O)CNC(=O)CN1CCN(CC(=O)O)CCN(CC(=O)O)CC1)C(=O)N[C@H]1CC(=O)NCCCC[C@@H](C(N)=O)NC(=O)[C@H](Cc2c[nH]c3ccccc23)NC(=O)[C@H](CCCNC(=N)N)NC(=O)[C@@H](Cc2ccccc2)NC(=O)[C@H](Cc2c[nH]cn2)NC1=O [gallium-67 labelled] | – | C57 mice, B16/F1 melanoma | 4 h | – | tumour to skin uptake ratio | 28.1 |
| O=C([O-])CN1CCN(CC(=O)[O-])CCN(CC(=O)NCCc2ccc3c(c2)C2C=CCC2C(c2cc4c(cc2Br)OCO4)N3)CCN(CC(=O)[O-])CC1.[111In+3] (stereo not shown) | – | mouse, Hec50 endometrial tumour xenograft, urine and hepatobiliary | 4 h post-injection | – | excreted dose | > 60 % injected dose |
| COc1ccc(-c2csc(N/N=C(\C)c3cc(O)cc(O)c3)n2)cc1 | LC-MS/MS | rat plasma | 3.75 ng/mL, 45 days, long-term storage at -20 °C | – | concentration after storage | 3.74 ng/mL |
